# Measurements of several laboratories.
# Parts stem from different laboratories: compare values within a part only. Substitutions count along the parent as printed.

# Sample 1 — technique: universal PBM; form: double-stranded DNA, one strand shown; sample: in vitro; tested at: 600 nM; direction: higher = stronger binding
# Target: Sal-like protein 4, full length isoform A (SALL4, Homo sapiens, UniProt Q9UJQ4, residues 1-1053)
# UniProt Q9UJQ4, sequence (whole entry, looked up): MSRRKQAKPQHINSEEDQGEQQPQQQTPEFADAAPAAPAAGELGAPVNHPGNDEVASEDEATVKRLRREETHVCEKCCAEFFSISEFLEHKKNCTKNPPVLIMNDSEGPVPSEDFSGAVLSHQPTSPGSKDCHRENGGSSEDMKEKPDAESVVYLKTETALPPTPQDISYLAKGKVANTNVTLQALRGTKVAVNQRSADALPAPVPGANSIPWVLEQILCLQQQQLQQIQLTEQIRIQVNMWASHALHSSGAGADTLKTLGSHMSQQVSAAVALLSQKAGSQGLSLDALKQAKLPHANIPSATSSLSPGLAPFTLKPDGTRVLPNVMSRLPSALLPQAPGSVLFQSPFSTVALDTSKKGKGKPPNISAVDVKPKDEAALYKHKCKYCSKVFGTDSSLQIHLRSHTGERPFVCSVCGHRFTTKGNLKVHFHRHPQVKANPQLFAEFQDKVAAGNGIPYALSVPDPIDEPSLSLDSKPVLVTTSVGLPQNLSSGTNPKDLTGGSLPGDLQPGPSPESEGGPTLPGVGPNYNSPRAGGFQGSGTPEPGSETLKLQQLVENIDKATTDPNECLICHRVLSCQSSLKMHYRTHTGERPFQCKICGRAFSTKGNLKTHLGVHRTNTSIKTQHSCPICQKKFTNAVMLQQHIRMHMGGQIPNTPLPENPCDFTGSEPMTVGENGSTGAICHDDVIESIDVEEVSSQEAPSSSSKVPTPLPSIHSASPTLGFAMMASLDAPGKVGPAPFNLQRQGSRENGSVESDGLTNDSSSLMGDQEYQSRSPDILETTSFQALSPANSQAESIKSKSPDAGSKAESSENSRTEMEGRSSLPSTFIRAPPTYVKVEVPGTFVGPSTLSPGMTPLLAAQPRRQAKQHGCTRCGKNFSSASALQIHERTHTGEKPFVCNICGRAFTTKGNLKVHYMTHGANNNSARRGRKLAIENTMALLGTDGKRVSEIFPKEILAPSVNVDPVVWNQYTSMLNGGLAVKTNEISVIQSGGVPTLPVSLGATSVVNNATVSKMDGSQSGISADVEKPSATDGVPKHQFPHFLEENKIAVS
# Setting: 8-mer, flanks averaged, mean of replicates
Oligonucleotide,E-score
CCGTAGGC,-0.142
GTCGCTTA,-0.0469
ACGACACA,0.0909
CGTGTTAA,0.146
ACAAGTAT,0.286
TCTGGGCA,-0.237
CCGGAAAG,-0.17
AGGGCGTG,-0.274
GCGTAATA,0.293
ATAAACAG,0.311
CTAGCAAA,0.164
AGAACCTG,-0.179
CATGTAGG,0.0755
GCACTGCC,-0.0915
AGTTGGAC,0.016
CTAGCCAG,-0.225
ATTCCCAG,-0.0508
GGGAGGTA,-0.194
GTCCTCAC,-0.00837
ATCAACAA,0.241
ACATAAAA,0.27
CAGTGTAA,0.129
GCAGCATA,0.055

# Sample 2 — target: CCND2, cyclin fold, Cln2 fusion (human); technique: yeast growth competition, sequencing; sample: yeast; setting: weak parent motif; reference: not given; direction: higher = stronger binding
# Starting sequence: REPIN1 docking peptide (human); QSFRGWVALVLHL; partner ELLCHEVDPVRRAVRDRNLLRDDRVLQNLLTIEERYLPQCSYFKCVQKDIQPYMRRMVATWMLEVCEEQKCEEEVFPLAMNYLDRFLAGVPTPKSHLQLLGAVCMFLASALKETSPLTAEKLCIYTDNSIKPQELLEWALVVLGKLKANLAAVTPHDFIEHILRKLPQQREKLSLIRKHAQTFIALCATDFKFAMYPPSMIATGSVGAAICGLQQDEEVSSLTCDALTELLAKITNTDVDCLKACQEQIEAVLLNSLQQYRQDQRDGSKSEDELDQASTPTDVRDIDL
Change,normalised enrichment score
QSFRGWVALVAHL [L11A],-0.0797
QSFRGAVALVLHL [W6A],-0.329
QSFRGWAALVLHL [V7A],0.225
QSFRGWVALVLAL [H12A],-0.334
QSARGWVALVLHL [F3A],-0.13
ASFRGWVALVLHL [Q1A],-0.542

# Sample 3 — technique: protein-binding microarray; form: double-stranded DNA, one strand shown; sample: in vitro; tested at: 940 nM top; setting: 60-bp whole probe; together with: salmon DNA 0.4 mg/ml; reference: random background probes; direction: higher = stronger binding; shared flanks, not repeated: GCCTAGCAC … GTCTTGATTCGCTTGACGCTGCTG
# Target: Interferon regulatory factor 5, full length, phosphomimetic (IRF5, Homo sapiens, UniProt Q13568-2, residues 1-514, S451D/S453D/S456D/S462D)
Oligonucleotide,fitted relative affinity [z-score]
GGCGGTATCGACTTTCGGGACGTGCTA,4.97
TTGGATTTCAGTATCGATTAGTGCTAG,5.77
GACGGTTACCTTCTCCTGACGTGCTAG,0.283
TCAATTTCCATTTTCTAACTGTGCTAG,1.4
TCATTTTTCCGAGTGAGACTGTGCTAG,0.515
TTAGGTATCCGGTATCGGTTAGTGCTA,4.35
GACGACCTGAGTATCGAGACGTGCTAG,1.41
GAAGGTATCGACACTGGGGACGTGCTA,3.17
TCACTTCTCAATTAAAAACTGTGCTAG,1.59
TGGGATTTTTAGTTAGAAAAGTGCTAG,-0.0153
TCATTTCCCACTTTCAGACTGTGCTAG,1.75
GACGGTATCGACTTTCGAGACGTGCTA,4.15
GACGGACTGGGACTGGGGGCGTGCTAG,0.191
TTAGGTATCGGGATTGGGTTAGTGCTA,4.68
TTAGGTATCGGGTATCTGTTAGTGCTA,6.42
ACCTGTATATCTTCAGCGGGGTGCTAG,-0.0715
GACGGTTTCGACGCTGGGGACGTGCTA,6.29
CTACTTCTCTTTTGGCTTTCGTGCTAG,1.73
TTAGGTTTCGACTATCGGTTCGTGCTA,9.36
TTAGGTTTCGGTATCGGTGAGTGCTAG,15.4
TTAGATTTCGGATATCGATTAGTGCTA,0.907
TATTTTCCTTTAAACTTTTAGTGCTAG,1.18
GACGGACTGGGGTTTCGGGAGGTGCTA,1.68
TCACATATACACTGTGTAACTGTGCTA,0.122
GTCGGTTTCGGTCTCGGGACGTGCTAG,16.3

# Sample 4 — technique: RNAcompete; form: RNA; sample: in vitro; tested at: 20 nM; setting: 7-mer, probes averaged, single round; reference: mean of 7-mers; direction: higher = stronger binding
# Target: PABPC1L2, full length, GST fusion (mouse, UniProt A0ABA7IW68)
# Target sequence (chain): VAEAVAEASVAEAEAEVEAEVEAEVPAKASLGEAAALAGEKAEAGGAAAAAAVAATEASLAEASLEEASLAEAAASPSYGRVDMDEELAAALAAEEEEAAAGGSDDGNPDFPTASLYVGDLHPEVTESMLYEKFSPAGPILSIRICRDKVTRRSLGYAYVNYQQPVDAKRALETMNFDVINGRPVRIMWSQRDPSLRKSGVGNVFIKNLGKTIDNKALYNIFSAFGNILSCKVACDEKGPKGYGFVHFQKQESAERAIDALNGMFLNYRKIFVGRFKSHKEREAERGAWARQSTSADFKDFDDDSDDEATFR
Oligonucleotide,7-mer Z-score
UUCAGCC,-0.371
UGGAAGA,0.229
GAUAGGC,-0.0591
GCAGUCG,-0.157
GAACAUG,0.0642
CGCGACC,-0.197
AUGAGAA,0.122
CAAUUUU,-0.108
AACCCAA,0.0732
AAAGUUA,1.39
GAUGGUC,-0.0283
UGACAGC,-0.293
AAAAUCC,2.18
GAGCCAA,0.0587
CUGCCAU,-0.191
GGCUAGU,-0.0554
UACAAAU,1.25
GGUCCUA,-0.0826
GCGGAGG,0.234
UCACGUA,-0.231
AAAUAGC,1.9
AAGAGUU,0.0388
GCGCACA,-0.0192
UGCCGAA,-0.0645

# Sample 5 — technique: protein binding microarray; form: double-stranded DNA, one strand shown; sample: in vitro; tested at: not given; reference: not given; direction: higher = stronger binding
# Target: Histone acetyltransferase KAT6A, winged helix 1, GST fusion (KAT6A, Homo sapiens, UniProt Q92794, residues 1-85)
# Setting: 8-mer, flanks averaged, mean of 2 arrays, mostly near background
# Residues (chain): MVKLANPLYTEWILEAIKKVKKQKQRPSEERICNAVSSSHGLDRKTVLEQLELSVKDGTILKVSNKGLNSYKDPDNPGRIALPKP
Oligonucleotide,E-score
AGGACATG,-0.113
CATTTACA,-0.1
CCCAGACG,0.0275
GACCGACC,0.0983
GAGACCCA,-0.0403
ATGGTCTG,-0.106
CAGCTTCA,-0.244
ATCAACTC,-0.23
AATTAAAA,0.00594
GAAGCCTA,0.0423
AGGCCAAC,-0.2
CATGAGGC,0.0524
AAGTGACT,-0.101
CCGTCGCC,0.432
CTTATTAC,0.0122
ACTTAGCG,0.128
AAGTCAGA,-0.205
AGCCTCTA,-0.146
ACCGGCCG,0.434
AGCACAGA,-0.2
CGGCCGGA,0.328
AACCAGTG,-0.125
ATTCAGAC,-0.25
CTTGAGAA,-0.265

# Sample 6 — technique: RNA Bind-n-Seq; form: RNA; sample: in vitro; tested at: 365 nM; reference: no-protein control; direction: higher = stronger binding
# Target: RNA binding protein fox-1 homolog 2, RRM domain, GST-SBP tag (RBFOX2, Homo sapiens, UniProt O43251-10, residues 100-194)
# Setting: natural RNA segment, single round, ends assumed
# Target sequence (chain): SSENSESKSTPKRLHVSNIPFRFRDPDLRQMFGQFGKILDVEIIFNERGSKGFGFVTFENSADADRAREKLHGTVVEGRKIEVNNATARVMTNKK
Oligonucleotide,RBNS enrichment (R)
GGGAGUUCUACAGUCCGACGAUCUUCAUUGAAAAACCACACGGCAGAUGAACAACCUAUGGCCAAAACGUCCAAUAAAUGUCUCUACCGCAACCUGUCUGUGUCCUUGAUGCCUAGCGCUACCUUCCUCUGGUUGGAAUUCUCGGGUGCCAA,0.463
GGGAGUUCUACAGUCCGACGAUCAAAUCUUUCUAGUUGGGCUUUUUGAUUUAUUUUAAAUGGAUAUUGCUCUUUGACUUGGUUUCUUCUUGCUCCCAUAUCAUCAAAUAUUGGAGCCUAUAAUUUUUUUACCUUGGAAUUCUCGGGUGCCAA,0.811
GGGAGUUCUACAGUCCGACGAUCCCUUCUAUUCCUUGUCCCCUCCCUGAGUUAGCUGGGCCUUGGUUCUGGGUCCCUGAGCAGGAGGAGGAGCUGUGAACAAGUCAGACCAAUAAAACCAGGUUUGCACUGCCUGGAAUUCUCGGGUGCCAA,0.469
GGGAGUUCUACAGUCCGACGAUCUGGGCUAUAUGCUGGUUAGGGAAUUCAGCAAAGACCUUGAUUAGAGACCAUGCCCACUGGAUAGAUGGGCAGAGAACCAGCACCUAAAGAACACCUACUGUGUGCCAGGCUGGAAUUCUCGGGUGCCAA,0.535
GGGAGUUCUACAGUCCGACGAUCAAGGGAAAUGGAGAGAUUUUUCCUUUUAGCUCUGCUGGUCAGAGAUUAAGCCACACCUUUCCAUUUUUCAAUGCUGCAUAUUUAAUCUGCAAAAAAAAGUUAAGCCAUAAUGGAAUUCUCGGGUGCCAA,0.351
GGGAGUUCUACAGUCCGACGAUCGAUUCCACUCUGUGCCCGCCUCUGCCGGGAGGGAGGGAGGCACACAGGUGGAGCUGACCCUCGUCUUUGUGGCAGCAAAACCAGGAUGCCUGGAGCUGUGGCCUGAGGGCUGGAAUUCUCGGGUGCCAA,0.406
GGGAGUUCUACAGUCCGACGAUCUACGUCCUUGCUUCCUCUGAGCAGAGGCCUCCAUCUUAGUAUCAACAUAUUUAAAGAAAUUGAUGGUGUUCAUCAAGCUGGGGCCUGUGGCAGUUGUUGCCUGAGCACCAUGGAAUUCUCGGGUGCCAA,0.309
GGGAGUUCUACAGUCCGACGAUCCCCAACCCCAUGCCUCACAGAGCUUCCUGUGGCUUCUCCAGCCUUUCUCCCUCACAUCAGGAGGUAGAUAGCUCUGAAAUGACAGCGCCACAGCCAUAGUGACUGCAUGAUGGAAUUCUCGGGUGCCAA,0.621
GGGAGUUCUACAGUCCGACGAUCUUGAACCGCAUCACCUUUCCUUGGCUUAAGCAUUCGUUACUAAUGGCAGGAAAGUCUUCCCUUCUAUAAGAUAUAUAUCUCUGUUAGCUUCAAGUAGGAAAUUUUAAUUUUGGAAUUCUCGGGUGCCAA,0.889
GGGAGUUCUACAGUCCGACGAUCUCCCUCCUGCACACUGGGGCUUCCCUUCACCAGGAGCAAAUCACUUCAACCUCCCGUGCCUCGUUUCCUCCCUCUGUAGCAUGGGGCUCGAGACUCCUGUUUGUGAGGGAUGGAAUUCUCGGGUGCCAA,0.697
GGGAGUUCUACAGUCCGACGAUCUCGUCUGGUAUAGAAAGCGCAUGUUUCUGUAUCGGUGUCUGAUGAUAAGUUUCCUUGGAGUUUUAUGCACAUGUUUGAUUGUUCUAGAUAAAUUGUCAUAAACAUUCUAGUGGAAUUCUCGGGUGCCAA,31.8
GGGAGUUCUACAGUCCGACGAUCCCAUAUAAAACAUUUAAAUAAUGCAGGUUAUUAUGAGCAAGUUAGCUUUGAGAACCCUCCUUUUAGUAUAUGAAAAAGCCUAAUGCGCAUUCAUGAGGUUGGAGAGACUAUGGAAUUCUCGGGUGCCAA,0.351

# For quick reference, copied from above (sample 1):
Oligonucleotide,E-score
AGTTGGAC,0.016
CAGTGTAA,0.129
CTAGCCAG,-0.225
CCGTAGGC,-0.142
GCACTGCC,-0.0915
GGGAGGTA,-0.194
GCAGCATA,0.055
CCGGAAAG,-0.17
CGTGTTAA,0.146
GTCGCTTA,-0.0469
TCTGGGCA,-0.237
GTCCTCAC,-0.00837
CTAGCAAA,0.164
CATGTAGG,0.0755
ACGACACA,0.0909
ATAAACAG,0.311
ACAAGTAT,0.286
ATCAACAA,0.241
